Assay results of several laboratories.
Each line is one published result; not all experiments were run side by side. Several values in a cell are separate wells, animals, samples, runs or records. Numbers after ± are the reported error.

COC1CN([C@H]2CC[C@H]([C@@]3(C)Oc4c(Cl)cc(C(=O)NCc5c(SC)cc(C)[nH]c5=O)c(C)c4O3)CC2)C1  log2 fold change (RNA-seq, item: GLIS2 mouse homolog; mouse, HT-1376 xenograft, whole blood; dose not given; reference: vehicle): 3
CN1CCC[C@]1(C)/C=C/S(=O)(=O)NC(=O)Nc1c2c(cc3c1CCC3)CCC2  IL-18 inhibition (human, whole blood ex vivo; 12.5 mg twice daily, day 14, 24 h, multiple ascending dose, added: LPS and ATP): -22.5%
NC[C@@H](C(=O)Nc1ccc(-c2cn[nH]c2)cc1)c1ccccc1  pMLC-2 immunostaining score (item: pMLC-2 Thr18/Ser19; ocular hypertensive rabbit, trabecular meshwork; topical, 0.1 %, 24 h; direction not given): 2 ± 0.8
CCN1C/C(=C\c2cc(Cl)c(O)c(Cl)c2)C(=O)/C(=C/c2cc(Cl)c(O)c(Cl)c2)C1  IC50 (ABTS scavenging; 20 min): 46.6 µg/mL
COC1OC(C)C(O)C(OC2OC(C)C(O)C(OC3OC(C)C(O)C(OS(=O)(=O)O)C3OS(=O)(=O)O)C2OS(=O)(=O)O)C1OS(=O)(=O)O (centres unmarked)  prothrombin time (human plasma; 128 µg/mL): 15.1 ± 0.4 s
CC(C)(C)NCC(SS(=O)(=O)O)c1ccccc1 (centres unmarked)  liver weight decrease (Schistosoma mansoni-infected mice; 200 mg/kg single, day 42, perfusion day 56; reference: vehicle): 25%
CCCCCCCCCCCCCCCC(=O)NCCCC[C@H](N)C(=O)N[C@@H](CC(=O)O)C(=O)N[C@H](C(=O)N[C@@H](Cc1c[nH]cn1)C(=O)N[C@@H](Cc1ccccc1)C(=O)N[C@@H](CCCNC(=N)N)C(=O)N[C@H](C(=O)N[C@@H](Cc1ccccc1)C(=O)N[C@@H](CCCNC(=N)N)C(=O)N[C@@H](CO)C(=O)N[C@@H](Cc1c[nH]cn1)C(=O)N[C@@H](CO)C(=O)N[C@@H](CC(=O)O)C(=O)N[C@@H](Cc1ccc(O)cc1)C(=O)N[C@@H](CCCNC(=N)N)C(=O)N[C@@H](CCCNC(=N)N)C(=O)N[C@H](C(=O)O)[C@@H](C)CC)[C@@H](C)O)[C@@H](C)O  liver weight (C57BL/6J mice, MCD diet-fed; dose not given, 3 weeks, NASH model): 1.1 ± 0.14 g
Cc1cnc2nc1Nc1cccc(c1)COC/C=C/COCc1cc(ccc1OCCN1CCOCC1)N2  hematocrit (BALB/c mice rhEPO-induced polycythemia; 75 mg/kg): 49.4% and 51.4% and 51% and 49.6% and 51.1% and 45.9%
CCC(=O)N[C@@H](C)C(=O)OCC(=O)N[C@@H](C)C(=O)O  chain scission rate constant (water; pH 7, 65 °C): 0.15 h⁻¹
Oc1cc2c(cc1O)C(c1cccc3[nH]ccc13)NCC2 (centres unmarked)  IC50 (ABTS scavenging; 10 min, dark): 8.75 µM
CC(=O)[O-].O.O.O.O.[Mn+2].[O-]c1ccc(Br)cc1C=NCCN1CCOCC1  inhibition (hydroxyl radical scavenging; 40 µM): 6.74%
COc1cc(O)ccc1CCC(c1ccc(O)cc1)c1cc2c(c(C)c1O)OC(c1ccc(O)cc1)CC2 (mixture of isomers)  amount (item: 5-HETE; human whole blood; 0.3 µM, added: Escherichia coli): 2600 ± 584 pg/mL blood
COC1OC(C)C(OC2OC(C)C(O)C(OC3OC(C)C(OC4OC(C)C(O)C(OS(=O)(=O)O)C4OS(=O)(=O)O)C(OS(=O)(=O)O)C3OS(=O)(=O)O)C2OS(=O)(=O)O)C(OS(=O)(=O)O)C1OS(=O)(=O)O (centres unmarked)  prothrombin time (human plasma; 128 µg/mL): 15.6 ± 0.9 s
Nc1nc2cc(CC[C@H]3C[C@@H](n4ccc5c(N)ncnc54)[C@H](O)[C@@H]3O)ccc2cc1Br  tumour volume (NCI-H1048 xenograft, mouse; 3.0 mg/kg/day, day 28): 1010 ± 249 mm3
COC1OC(C)C(OC2OC(C)C(OS(=O)(=O)O)C(OC3OC(C)C(OC4OC(C)C(OS(=O)(=O)O)C(OC5OC(C)C(OC6OC(C)C(OS(=O)(=O)O)C(OC7OC(C)C(OS(=O)(=O)O)C(OS(=O)(=O)O)C7O)C6O)C(OS(=O)(=O)O)C5O)C4O)C(OS(=O)(=O)O)C3O)C2O)C(OS(=O)(=O)O)C1O (centres unmarked)  prothrombin time (human plasma; 128 µg/mL): 15.2 ± 0.8 s
OCC1OC(n2cnc3c(NCc4ccc(Br)s4)ncnc32)C(O)C1O (centres unmarked)  brain inosine level (mouse; oral, 3 mg/kg, 2 h): increased
COC1OC(C)C(OC2OC(C)C(O)C(OC3OC(C)C(OC4OC(C)C(O)C(OC5OC(C)C(OC6OC(C)C(O)C(OC7OC(C)C(O)C(OS(=O)(=O)O)C7OS(=O)(=O)O)C6OS(=O)(=O)O)C(OS(=O)(=O)O)C5OS(=O)(=O)O)C4OS(=O)(=O)O)C(OS(=O)(=O)O)C3OS(=O)(=O)O)C2OS(=O)(=O)O)C(OS(=O)(=O)O)C1OS(=O)(=O)O (centres unmarked)  prothrombin time prolongation (human plasma; 128 µg/mL; reference: control): 0.97 fold
CN1CCCNC(=O)c2cccc(c2)C(=O)NCCCN(C)CCCNc2cccc3c2C(=O)c2cccc(c2C3=O)NCCC1  tumour volume (KSN/Slc nude mice, SAS xenograft; dose not given, day 10, 240 h): 423 mm3 and 270 mm3 and 316 mm3 and 276 mm3
COC1OC(C)C(OS(=O)(=O)O)C(OC2OC(C)C(OS(=O)(=O)O)C(OC3OC(C)C(OS(=O)(=O)O)C(OC4OC(C)C(OS(=O)(=O)O)C(OC5OC(C)C(OS(=O)(=O)O)C(OS(=O)(=O)O)C5OS(=O)(=O)O)C4OS(=O)(=O)O)C3OS(=O)(=O)O)C2OS(=O)(=O)O)C1OS(=O)(=O)O (centres unmarked)  prothrombin time prolongation (human plasma; 128 µg/mL; reference: control): 1 fold
CCC(CC)n1c(Cc2cccs2)nc2cc(C(=O)N[C@@H](CC(=O)O)c3ccccc3)ccc21  running distance (exercise performance; mouse HFpEF model (high-fat diet plus L-NAME, 7 weeks); intraperitoneal, 20 mg/kg/day, 2 weeks): increased
COC1OC(C)C(OS(=O)(=O)O)C(OC2OC(C)C(OS(=O)(=O)O)C(OC3OC(C)C(OS(=O)(=O)O)C(OS(=O)(=O)O)C3OS(=O)(=O)O)C2OS(=O)(=O)O)C1OS(=O)(=O)O (centres unmarked)  prothrombin time prolongation (human plasma; 128 µg/mL; reference: control): 1.01 fold
O=C([O-])CN1Cc2cccc(n2)CN(CC(=O)[O-])Cc2cccc(n2)C1.[Mn+2]  kidney signal enhancement (9.4 T T1-weighted MRI; mouse; intravenous, 80 µmol/kg; reference: baseline): ~1.75 fold
COC1OC(C)C(OC2OC(C)C(OS(=O)(=O)O)C(OC3OC(C)C(OC4OC(C)C(OS(=O)(=O)O)C(OC5OC(C)C(OC6OC(C)C(OS(=O)(=O)O)C(OS(=O)(=O)O)C6OS(=O)(=O)O)C(OS(=O)(=O)O)C5OS(=O)(=O)O)C4OS(=O)(=O)O)C(OS(=O)(=O)O)C3OS(=O)(=O)O)C2OS(=O)(=O)O)C(OS(=O)(=O)O)C1OS(=O)(=O)O (centres unmarked)  prothrombin time prolongation (human plasma; 128 µg/mL; reference: control): 1.03 fold
COc1ccc(NC(=O)c2ccc3[nH]c(-c4ccc(N(C)C)cc4)nc3c2)cn1  tumour volume (CT26, BALB/c nude mice, subcutaneous graft; dose not given, day 11): 2260 mm3 and 1600 mm3 and 996 mm3 and 1180 mm3 and 1860 mm3
COC1OC(C)C(OC2OC(C)C(OS(=O)(=O)O)C(OS(=O)(=O)O)C2O)C(OS(=O)(=O)O)C1O (centres unmarked)  prothrombin time prolongation (human plasma; 128 µg/mL; reference: control): 1 fold
CC(C)C[C@H](NC(=O)[C@H](CC(=O)O)NC(=O)CNC(=O)[C@@H](N)CCCNC(=N)N)C(=O)N[C@@H](C)C(=O)N[C@H](C(=O)N[C@@H](CC(C)C)C(=O)N[C@@H](CCCNC(=N)N)C(=O)N[C@@H](CCC(N)=O)C(=O)N[C@@H](CC(C)C)C(=O)N[C@@H](C)C(=O)N[C@@H](CCC(N)=O)C(=O)N[C@@H](CCC(=O)O)C(=O)N[C@@H](CC(=O)O)C(=O)NCC(=O)N[C@H](C(=O)N[C@H](C(=O)NCC(=O)N[C@H](C(=O)N[C@@H](CCCNC(=N)N)C(=O)NCCOCCOCCOCCOCCOCCOCCOCCOCCOCCOCCOCCOCCC(=O)N[C@@H](CS)C(N)=O)C(C)C)C(C)C)C(C)C)[C@@H](C)O  fluorescence signal ratio (ex vivo NIR imaging; NOD/SCID mice, xenograft, H2009 xenograft; intravenous, 30 µg, 24 h; reference: liver): 1.4 and 1.5 and 1.6

Repeated from above:
COC1OC(C)C(OC2OC(C)C(O)C(OC3OC(C)C(OC4OC(C)C(O)C(OC5OC(C)C(OC6OC(C)C(O)C(OC7OC(C)C(O)C(OS(=O)(=O)O)C7OS(=O)(=O)O)C6OS(=O)(=O)O)C(OS(=O)(=O)O)C5OS(=O)(=O)O)C4OS(=O)(=O)O)C(OS(=O)(=O)O)C3OS(=O)(=O)O)C2OS(=O)(=O)O)C(OS(=O)(=O)O)C1OS(=O)(=O)O (centres unmarked)  prothrombin time prolongation (human plasma; 128 µg/mL; reference: control): 0.97 fold
COC1OC(C)C(OC2OC(C)C(OS(=O)(=O)O)C(OC3OC(C)C(OC4OC(C)C(OS(=O)(=O)O)C(OC5OC(C)C(OC6OC(C)C(OS(=O)(=O)O)C(OS(=O)(=O)O)C6OS(=O)(=O)O)C(OS(=O)(=O)O)C5OS(=O)(=O)O)C4OS(=O)(=O)O)C(OS(=O)(=O)O)C3OS(=O)(=O)O)C2OS(=O)(=O)O)C(OS(=O)(=O)O)C1OS(=O)(=O)O (centres unmarked)  prothrombin time prolongation (human plasma; 128 µg/mL; reference: control): 1.03 fold
CCC(CC)n1c(Cc2cccs2)nc2cc(C(=O)N[C@@H](CC(=O)O)c3ccccc3)ccc21  running distance (exercise performance; mouse HFpEF model (high-fat diet plus L-NAME, 7 weeks); intraperitoneal, 20 mg/kg/day, 2 weeks): increased
